Assay results gathered from unrelated publications.
Numbered parts are unrelated; each lists some results of a single study.
Sequence of UniProt Q00526 (whole entry, looked up): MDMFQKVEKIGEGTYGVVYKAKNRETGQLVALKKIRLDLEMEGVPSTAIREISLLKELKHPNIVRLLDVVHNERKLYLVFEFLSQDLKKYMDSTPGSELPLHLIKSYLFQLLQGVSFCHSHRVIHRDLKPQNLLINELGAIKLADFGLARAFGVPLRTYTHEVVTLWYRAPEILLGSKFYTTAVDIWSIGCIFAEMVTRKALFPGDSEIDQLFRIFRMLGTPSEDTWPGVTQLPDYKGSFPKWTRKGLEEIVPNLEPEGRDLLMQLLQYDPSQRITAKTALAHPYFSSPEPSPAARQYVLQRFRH
Sequence of UniProt P07333 (whole entry, looked up): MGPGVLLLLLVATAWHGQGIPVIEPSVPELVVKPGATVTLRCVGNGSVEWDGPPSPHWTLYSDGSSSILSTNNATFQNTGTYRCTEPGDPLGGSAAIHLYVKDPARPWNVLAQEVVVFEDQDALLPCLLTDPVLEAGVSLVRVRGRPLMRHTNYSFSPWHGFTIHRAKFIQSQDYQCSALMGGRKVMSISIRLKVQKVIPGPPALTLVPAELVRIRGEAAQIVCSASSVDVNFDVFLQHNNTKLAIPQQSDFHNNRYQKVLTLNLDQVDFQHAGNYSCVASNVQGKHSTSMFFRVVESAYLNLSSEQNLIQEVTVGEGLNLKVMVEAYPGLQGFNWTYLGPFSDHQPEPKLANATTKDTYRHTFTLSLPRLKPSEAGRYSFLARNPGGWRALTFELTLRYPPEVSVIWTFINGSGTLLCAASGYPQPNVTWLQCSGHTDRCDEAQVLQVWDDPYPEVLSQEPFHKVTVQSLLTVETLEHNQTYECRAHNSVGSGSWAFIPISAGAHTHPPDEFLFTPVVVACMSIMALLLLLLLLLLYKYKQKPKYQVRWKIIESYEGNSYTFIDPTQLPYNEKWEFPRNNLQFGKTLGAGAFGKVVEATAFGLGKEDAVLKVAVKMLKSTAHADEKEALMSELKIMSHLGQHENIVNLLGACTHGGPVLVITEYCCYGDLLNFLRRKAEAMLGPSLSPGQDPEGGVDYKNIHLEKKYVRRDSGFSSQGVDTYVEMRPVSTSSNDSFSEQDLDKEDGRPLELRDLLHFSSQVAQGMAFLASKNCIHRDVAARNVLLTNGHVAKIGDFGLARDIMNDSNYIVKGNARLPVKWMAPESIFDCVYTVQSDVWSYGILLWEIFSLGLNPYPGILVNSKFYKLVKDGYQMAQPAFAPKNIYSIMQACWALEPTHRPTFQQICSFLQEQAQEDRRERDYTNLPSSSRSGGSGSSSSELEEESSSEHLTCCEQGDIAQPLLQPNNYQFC
Sequence of UniProt P21802 (whole entry, looked up): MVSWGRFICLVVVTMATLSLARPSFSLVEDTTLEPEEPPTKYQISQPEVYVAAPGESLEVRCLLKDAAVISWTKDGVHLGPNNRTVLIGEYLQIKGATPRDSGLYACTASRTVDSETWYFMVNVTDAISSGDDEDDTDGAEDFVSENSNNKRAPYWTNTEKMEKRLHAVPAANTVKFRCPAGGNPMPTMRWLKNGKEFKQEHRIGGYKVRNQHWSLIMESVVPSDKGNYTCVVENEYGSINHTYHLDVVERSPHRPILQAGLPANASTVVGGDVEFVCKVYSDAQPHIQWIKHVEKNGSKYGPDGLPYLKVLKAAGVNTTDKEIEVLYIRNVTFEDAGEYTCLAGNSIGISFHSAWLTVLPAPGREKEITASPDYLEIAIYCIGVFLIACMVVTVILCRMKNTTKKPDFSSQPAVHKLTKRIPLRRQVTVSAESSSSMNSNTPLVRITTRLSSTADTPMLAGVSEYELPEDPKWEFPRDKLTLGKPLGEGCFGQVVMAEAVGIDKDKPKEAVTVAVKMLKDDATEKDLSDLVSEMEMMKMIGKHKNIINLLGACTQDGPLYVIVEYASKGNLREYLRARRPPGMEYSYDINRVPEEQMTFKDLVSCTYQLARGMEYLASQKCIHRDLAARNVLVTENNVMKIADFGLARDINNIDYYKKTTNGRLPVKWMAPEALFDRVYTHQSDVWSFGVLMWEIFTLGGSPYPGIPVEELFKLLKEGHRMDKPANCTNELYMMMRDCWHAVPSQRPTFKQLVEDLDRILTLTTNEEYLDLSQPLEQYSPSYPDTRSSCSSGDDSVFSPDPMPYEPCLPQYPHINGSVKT
Sequence of UniProt Q13164 (whole entry, looked up): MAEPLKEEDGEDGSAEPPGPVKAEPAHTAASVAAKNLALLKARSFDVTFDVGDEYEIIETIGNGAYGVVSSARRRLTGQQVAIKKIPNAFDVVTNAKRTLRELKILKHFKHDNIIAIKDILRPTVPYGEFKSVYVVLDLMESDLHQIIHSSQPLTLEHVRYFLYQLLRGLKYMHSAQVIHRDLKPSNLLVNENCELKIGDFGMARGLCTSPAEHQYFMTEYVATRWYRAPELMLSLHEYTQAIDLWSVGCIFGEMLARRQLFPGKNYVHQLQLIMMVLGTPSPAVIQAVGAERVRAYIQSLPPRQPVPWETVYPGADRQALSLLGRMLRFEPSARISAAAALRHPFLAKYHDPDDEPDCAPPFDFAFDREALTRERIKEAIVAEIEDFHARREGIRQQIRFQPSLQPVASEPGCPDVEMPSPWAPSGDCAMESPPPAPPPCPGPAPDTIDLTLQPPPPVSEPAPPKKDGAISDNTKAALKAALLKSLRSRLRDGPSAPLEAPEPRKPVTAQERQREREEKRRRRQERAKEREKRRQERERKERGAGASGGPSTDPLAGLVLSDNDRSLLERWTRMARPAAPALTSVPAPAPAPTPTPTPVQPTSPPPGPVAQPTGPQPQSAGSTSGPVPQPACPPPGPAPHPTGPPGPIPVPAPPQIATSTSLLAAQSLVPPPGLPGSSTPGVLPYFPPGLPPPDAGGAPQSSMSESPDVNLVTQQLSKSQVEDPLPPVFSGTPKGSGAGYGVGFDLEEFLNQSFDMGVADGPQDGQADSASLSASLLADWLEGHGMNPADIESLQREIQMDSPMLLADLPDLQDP
Sequence of UniProt P08069 (whole entry, looked up): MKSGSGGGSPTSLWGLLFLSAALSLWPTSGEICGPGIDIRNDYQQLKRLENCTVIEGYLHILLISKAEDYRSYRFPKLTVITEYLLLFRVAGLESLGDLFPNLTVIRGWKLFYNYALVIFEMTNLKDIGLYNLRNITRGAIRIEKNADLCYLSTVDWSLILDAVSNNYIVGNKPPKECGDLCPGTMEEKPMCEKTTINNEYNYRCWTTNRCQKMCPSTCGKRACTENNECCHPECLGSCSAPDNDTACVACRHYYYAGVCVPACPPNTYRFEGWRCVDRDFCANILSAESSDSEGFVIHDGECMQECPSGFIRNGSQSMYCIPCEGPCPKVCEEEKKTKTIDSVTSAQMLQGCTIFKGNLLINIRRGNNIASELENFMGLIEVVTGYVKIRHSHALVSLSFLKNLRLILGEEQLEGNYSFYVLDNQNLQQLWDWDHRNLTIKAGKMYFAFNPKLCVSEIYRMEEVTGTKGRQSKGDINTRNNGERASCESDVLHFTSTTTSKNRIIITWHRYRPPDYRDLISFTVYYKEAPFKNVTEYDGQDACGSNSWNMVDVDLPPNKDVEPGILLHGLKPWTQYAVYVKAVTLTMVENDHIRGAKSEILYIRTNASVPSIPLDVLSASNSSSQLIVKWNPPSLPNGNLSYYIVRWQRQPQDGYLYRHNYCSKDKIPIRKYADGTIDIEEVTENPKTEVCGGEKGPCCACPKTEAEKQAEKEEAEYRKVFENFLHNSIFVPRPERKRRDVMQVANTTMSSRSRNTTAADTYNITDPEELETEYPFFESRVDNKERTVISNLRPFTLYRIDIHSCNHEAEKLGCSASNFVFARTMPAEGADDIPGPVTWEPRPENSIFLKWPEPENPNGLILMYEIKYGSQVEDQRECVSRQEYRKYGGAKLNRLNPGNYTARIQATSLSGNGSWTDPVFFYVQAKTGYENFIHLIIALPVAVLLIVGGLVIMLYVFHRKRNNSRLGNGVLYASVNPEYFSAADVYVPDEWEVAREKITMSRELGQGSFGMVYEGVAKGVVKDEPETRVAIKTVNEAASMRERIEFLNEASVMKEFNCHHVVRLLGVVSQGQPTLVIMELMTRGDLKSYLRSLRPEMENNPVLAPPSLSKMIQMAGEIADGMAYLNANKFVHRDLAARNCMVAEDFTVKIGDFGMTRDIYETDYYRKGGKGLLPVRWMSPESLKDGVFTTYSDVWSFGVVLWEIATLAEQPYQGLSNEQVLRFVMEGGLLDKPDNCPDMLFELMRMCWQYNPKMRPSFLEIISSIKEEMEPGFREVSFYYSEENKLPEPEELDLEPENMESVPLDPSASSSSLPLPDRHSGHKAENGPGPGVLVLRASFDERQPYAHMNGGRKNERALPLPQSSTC

Series 1
Structure (SMILES): COCCOc1nc(-c2ccc(Cl)nc2)nc2c1CN(C(=O)c1ncn3ccccc13)CC2
Effect on: cell-free assay
Technique: competition with immobilised ligand
Concentration: 0.1 µM
| target | remaining binding [%] |
| --- | --- |
| Fibroblast growth factor receptor 2 (FGFR2, Homo sapiens, UniProt P21802) | 100 |
| Tyrosine-protein kinase Mer (MERTK, Homo sapiens, UniProt Q12866) | 89 |
| Glycogen synthase kinase-3 beta (GSK3B, Homo sapiens, UniProt P49841) | 100 |
| Casein kinase II subunit alpha (CSNK2A1, Homo sapiens, UniProt P68400) | 99 |
| Ephrin type-A receptor 1 (EPHA1, Homo sapiens, UniProt P21709) | 100 |
| Epidermal growth factor receptor (EGFR, Homo sapiens, UniProt P00533, L858R) | 83 |
| Tyrosine-protein kinase receptor UFO (AXL, Homo sapiens, UniProt P30530) | 90 |
| Mitogen-activated protein kinase 7 (MAPK7, Homo sapiens, UniProt Q13164) | 100 |
| Homeodomain-interacting protein kinase 2 (HIPK2, Homo sapiens, UniProt Q9H2X6) | 100 |
| NUAK family SNF1-like kinase 2 (NUAK2, Homo sapiens, UniProt Q9H093) | 100 |
| Tyrosine-protein kinase Tec (TEC, Homo sapiens, UniProt P42680) | 100 |
| Ankyrin repeat and protein kinase domain-containing protein 1 (ANKK1, Homo sapiens, UniProt Q8NFD2) | 100 |
| ALK tyrosine kinase receptor (ALK, Homo sapiens, UniProt Q9UM73) | 91 |
| Serine/threonine-protein kinase N2 (PKN2, Homo sapiens, UniProt Q16513) | 55 |
| Serine/threonine-protein kinase DCLK2 (DCLK2, Homo sapiens, UniProt Q8N568) | 100 |
| Hepatocyte growth factor receptor (MET, Homo sapiens, UniProt P08581, Y1235D) | 100 |
| Macrophage colony-stimulating factor 1 receptor, autoinhibited (CSF1R, Homo sapiens, UniProt P07333) | 100 |
| Insulin-like growth factor 1 receptor (IGF1R, Homo sapiens, UniProt P08069) | 82 |
| Fibroblast growth factor receptor 4 (FGFR4, Homo sapiens, UniProt P22455) | 90 |
| Calcium/calmodulin-dependent protein kinase type IV (CAMK4, Homo sapiens, UniProt Q16566) | 100 |
| Death-associated protein kinase 1 (DAPK1, Homo sapiens, UniProt P53355) | 100 |
| Cyclin-dependent kinase 3 (CDK3, Homo sapiens, UniProt Q00526) | 100 |
| Calcium/calmodulin-dependent protein kinase type II subunit alpha (CAMK2A, Homo sapiens, UniProt Q9UQM7) | 100 |
| Testis-specific serine/threonine-protein kinase 1 (TSSK1B, Homo sapiens, UniProt Q9BXA7) | 100 |
| Phosphatidylinositol 3-kinase catalytic subunit type 3 (PIK3C3, Homo sapiens, UniProt Q8NEB9) | 100 |

Series 2
Target: Serine/threonine-protein kinase Chk2 (CHEK2, Homo sapiens, UniProt O96017)
Sequence of UniProt O96017 (whole entry, looked up): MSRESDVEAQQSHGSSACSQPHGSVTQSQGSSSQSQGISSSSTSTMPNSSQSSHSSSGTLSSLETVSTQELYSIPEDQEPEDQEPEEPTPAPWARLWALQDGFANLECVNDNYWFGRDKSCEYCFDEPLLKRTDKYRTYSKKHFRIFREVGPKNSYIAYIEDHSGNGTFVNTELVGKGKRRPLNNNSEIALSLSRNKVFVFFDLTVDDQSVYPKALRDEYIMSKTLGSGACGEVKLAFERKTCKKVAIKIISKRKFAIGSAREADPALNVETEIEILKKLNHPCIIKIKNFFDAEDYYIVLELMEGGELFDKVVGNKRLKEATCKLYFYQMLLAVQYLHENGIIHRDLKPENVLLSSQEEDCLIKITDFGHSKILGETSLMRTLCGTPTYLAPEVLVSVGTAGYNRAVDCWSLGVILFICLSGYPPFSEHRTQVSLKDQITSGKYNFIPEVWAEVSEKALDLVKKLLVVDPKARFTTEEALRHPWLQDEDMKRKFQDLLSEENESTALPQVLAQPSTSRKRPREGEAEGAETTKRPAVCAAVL
Effect on: enzyme activity
Action: inhibitor
Concentration: 0.5 µM
Reference: control
| Compound | remaining activity [%] |
| --- | --- |
| COc1cc2ncnc(Nc3ccc(Oc4ccccc4)cc3)c2cc1OC | 29.6 |
| Cn1sc(=O)n(Cc2ccccc2)c1=O | 108 |
| N#CC(C#N)=C(N)/C(C#N)=C/c1ccc(O)cc1 | 95.5 |
| Oc1ccc(-c2nc(-c3ccncc3)c(-c3ccc(F)cc3)[nH]2)cc1 | 98.9 |
| COc1cc2ncnc(Nc3ccc(F)c(Cl)c3)c2cc1OCCCN1CCOCC1 | 84 |
| O=C(O)c1ccc2c3c1cccc3c(=O)n1c3ccccc3nc21 | 75.2 |
| CCOC(=O)c1c(C)[nH]c(/C=C2\C(=O)Nc3ccccc32)c1C | 70.5 |
| CNC(=O)c1cc(Oc2ccc(NC(=O)Nc3ccc(Cl)c(C(F)(F)F)c3)cc2)ccn1 | 102 |
| COc1cc2nccc(Oc3ccc(NC(=S)NC(=O)c4ccccc4C)cc3)c2cc1OC | 67 |
| NCCNc1ncc(C(N)=O)c(Nc2cccc(C(F)(F)F)c2)n1 | 11.5 |
| Nc1ncnc2n[nH]c(Nc3ccc(F)cc3)c12 | 98.6 |
| Nc1ccc2ncnc(NCCc3ccc(Oc4ccccc4)cc3)c2c1 | 91.7 |
| O=C(CCCc1ccc(-c2ccccc2F)cc1)Nc1ccc(O)cc1 | 101 |
| COc1ccc(C(=O)Nc2sc3c(c2C(N)=O)CCCC3)cc1OC | 93 |
| Cc1cccc(-c2[nH]c(C(C)(C)C)nc2-c2ccc3c(c2)OCO3)n1 | 96.4 |

Series 3
Target: Prothrombin, mature alpha-thrombin (F2, Homo sapiens, UniProt P00734)
Technique: aptamer microarray, sandwich
Form: DNA with 2'F-ANA
Sample: in vitro
Concentration: 200 nM
Notes: whole 15-mer aptamer, many near background
Together with: Cy3 exosite-II aptamer, 400 nM
Reading: higher = stronger binding
Oligonucleotide: GGTTGGTGTGGTTGG
| Modification | mean fluorescence intensity |
| --- | --- |
| 2'F-ANA at 2 3 6 8 9 11 13 14 15 | 281 a.u. |
| 2'F-ANA at 1 4 5 8 11 12 13 | 67.4 a.u. |
| 2'F-ANA at 1 5 6 8 9 10 12 13 15 | 48.3 a.u. |
| 2'F-ANA at 4 5 6 13 15 | 49.1 a.u. |
| 2'F-ANA at 2 4 5 6 7 9 10 11 13 15 | 61.1 a.u. |
| 2'F-ANA at 2 3 4 5 6 9 10 11 14 | 46.9 a.u. |
| 2'F-ANA at 2 7 9 10 14 15 | 90.7 a.u. |
| 2'F-ANA at 6 9 10 11 12 13 14 15 | 98.7 a.u. |

Series 4
Target: RING finger protein unkempt homolog, zinc fingers 1-6, GST-SBP tag (UNK, Homo sapiens, UniProt Q9C0B0, residues 30-357)
Technique: RNA Bind-n-Seq
Form: RNA
Sample: in vitro
Concentration: not given
Notes: RNA with constant flanks, ends assumed
Reference: input RNA pool
Reading: higher = stronger binding
All sequences stand within: GGGAGUUCUACAGUCCGACGAUC … CAACAGAGGAUUGAGCAUCA
Residues (chain): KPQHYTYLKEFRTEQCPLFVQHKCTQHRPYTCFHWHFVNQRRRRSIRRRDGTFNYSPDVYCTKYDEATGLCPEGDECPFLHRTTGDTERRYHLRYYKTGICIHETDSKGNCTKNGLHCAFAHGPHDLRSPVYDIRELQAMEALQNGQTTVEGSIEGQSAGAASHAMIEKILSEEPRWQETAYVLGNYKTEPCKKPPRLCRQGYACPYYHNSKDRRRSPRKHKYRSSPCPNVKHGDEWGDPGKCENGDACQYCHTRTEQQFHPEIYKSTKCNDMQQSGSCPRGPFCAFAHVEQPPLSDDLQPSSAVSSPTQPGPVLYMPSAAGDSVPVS
| Oligonucleotide | bound/input enrichment |
| --- | --- |
| GAAUACCAUCUGGCUGAUCUUGCAUCCUUAAUGGACAAAGCGUAUGAAAGAAAAUUGCCUGUCCGUUCUUUAUCAAUAUCACGGUUUGUGGACAACAUUGCAUCCCGAGAAGAUCUAGAU | 0.158 ratio |
| GAAGAAGGCUGCUUUGCGUUUGUUUUUAAGACGUUAACAUUAUUUUUUUGGUUGUACUGCACCCGGAAAUCUCUCCUACCCCUCCUUUUCUCUUCUCUCCCUAGAUAAAAAUAAAAGGCC | 5.36 ratio |
| UUUUUUUUUCCCGGGGUGGGGGGUGUUCUUUGGGGGAAUUUUUUUUUUAAUGGAAGCUUCCCGCAAGCCCUAUGCCCCACCCCAAUCAACCUCUUUGCUUUCUUCUUUAAAAAAAGGAAA | 0.0728 ratio |
| UCCAAAGUUGUCCGUGUUAGAGCAGAUUUGCUUGACGAGUUAAUUAAAUCAGGGCAGUUACCCGGCGUGAAAUUUAUAGCAGAGCUUGGUGUCCCACUGUCACAGGUUAAAAGCAUAUCA | 0.305 ratio |
| AAAAACUUGGCCCUUAUGACACACAUCACAACUGAUAUGGAAGAUGGACCCAUUGUUAAAUCCGCCAGUAACUUGGGAGUAGAAGAUGUGAAUUUAUUAUGUGGGGAAGAGCUCUCUUAC | 0.18 ratio |
| AACCCAAGUAUUUUUAUGUAAAAAGAUUUCAAUUUAGAAUACUUCAUUUUUGAGAUGGAGUUCCGAAUAUUUCAUUUUGAAAUGGAACGAAAGGGUUAGGUUUUGAUGUAAAAGACAGGA | 1.03 ratio |
| CUGGGCUGCUCGGGUUAGAUCGUCAGGAAAAGCCUAAAGAUUAGACUGUAAGAAAAGAAAACCGAAGCCAUGUUUCGAAGACCUGUAUUACAGGUACUUCGUCAGUUUGUAAGACAUGAG | 0.497 ratio |
| CGGCCCCGUGACCCUAGUCGGCCGCUGAGAGGCGCGCGGAGUCUGGGCCGCUGCCGUCCCGGGGUCCCGUCCCGAGGCGUCCCCGGCAUCUCCGGCCCGAAUCCCGGAGUGCCGGGUCGC | 0.44 ratio |

Further values, each from its own experiment
| Structure (SMILES) | system | conditions | quantity | result |
| --- | --- | --- | --- | --- |
| CC(C)n1cnc(-c2ccc(F)cc2)c1-c1ncc(C(=O)Nc2ccc(N3CCN(C)CC3)cc2)[nH]1 | human, idiopathic pulmonary fibrosis | concentration not given, trial, all arms total | patients with Nasopharyngitis | 0% |

Excerpt of the above (series 2):
| Compound | remaining activity [%] |
| --- | --- |
| CCOC(=O)c1c(C)[nH]c(/C=C2\C(=O)Nc3ccccc32)c1C | 70.5 |
| CNC(=O)c1cc(Oc2ccc(NC(=O)Nc3ccc(Cl)c(C(F)(F)F)c3)cc2)ccn1 | 102 |
| COc1cc2nccc(Oc3ccc(NC(=S)NC(=O)c4ccccc4C)cc3)c2cc1OC | 67 |
| NCCNc1ncc(C(N)=O)c(Nc2cccc(C(F)(F)F)c2)n1 | 11.5 |
| Nc1ncnc2n[nH]c(Nc3ccc(F)cc3)c12 | 98.6 |
| Nc1ccc2ncnc(NCCc3ccc(Oc4ccccc4)cc3)c2c1 | 91.7 |
| O=C(CCCc1ccc(-c2ccccc2F)cc1)Nc1ccc(O)cc1 | 101 |
| COc1ccc(C(=O)Nc2sc3c(c2C(N)=O)CCCC3)cc1OC | 93 |
| Cc1cccc(-c2[nH]c(C(C)(C)C)nc2-c2ccc3c(c2)OCO3)n1 | 96.4 |
